Results gathered from unrelated publications.
Protocols differ between the studies behind these lines.
Chymotrypsinogen A: Chymotrypsinogen A (Bos taurus, UniProt P00766)
GBA2: Beta-glucosidase (GBA2, Homo sapiens, UniProt Q9HCG7)
Chain of UniProt Q9HCG7 (whole entry, looked up): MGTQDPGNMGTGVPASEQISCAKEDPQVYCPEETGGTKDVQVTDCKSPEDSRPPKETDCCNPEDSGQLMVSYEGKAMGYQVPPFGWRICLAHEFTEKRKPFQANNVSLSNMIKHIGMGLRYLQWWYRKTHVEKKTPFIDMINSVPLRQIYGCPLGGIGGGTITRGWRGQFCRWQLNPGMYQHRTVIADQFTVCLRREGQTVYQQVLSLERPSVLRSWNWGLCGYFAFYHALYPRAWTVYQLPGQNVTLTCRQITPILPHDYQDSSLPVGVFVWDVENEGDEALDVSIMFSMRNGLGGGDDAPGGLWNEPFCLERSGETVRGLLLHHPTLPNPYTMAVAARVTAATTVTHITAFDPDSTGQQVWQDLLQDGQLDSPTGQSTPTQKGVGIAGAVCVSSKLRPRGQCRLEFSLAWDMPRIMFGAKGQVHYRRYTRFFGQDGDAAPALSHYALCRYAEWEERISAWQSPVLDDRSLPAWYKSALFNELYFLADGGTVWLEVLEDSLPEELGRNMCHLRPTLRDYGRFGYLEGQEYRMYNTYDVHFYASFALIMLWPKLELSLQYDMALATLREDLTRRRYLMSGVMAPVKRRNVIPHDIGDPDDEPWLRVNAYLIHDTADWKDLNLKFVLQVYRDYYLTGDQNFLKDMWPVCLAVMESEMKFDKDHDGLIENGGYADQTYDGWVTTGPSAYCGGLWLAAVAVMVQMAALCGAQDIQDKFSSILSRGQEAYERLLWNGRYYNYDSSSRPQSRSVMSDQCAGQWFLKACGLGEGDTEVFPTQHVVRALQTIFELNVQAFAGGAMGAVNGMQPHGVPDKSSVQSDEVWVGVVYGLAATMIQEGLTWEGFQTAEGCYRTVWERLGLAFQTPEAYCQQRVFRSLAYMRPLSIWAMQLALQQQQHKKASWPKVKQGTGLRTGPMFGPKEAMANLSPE
PPARA ligand-binding domain: Peroxisome proliferator-activated receptor alpha, ligand-binding domain (PPARA, Homo sapiens, UniProt Q07869)
Chain of UniProt Q07869 (whole entry, looked up): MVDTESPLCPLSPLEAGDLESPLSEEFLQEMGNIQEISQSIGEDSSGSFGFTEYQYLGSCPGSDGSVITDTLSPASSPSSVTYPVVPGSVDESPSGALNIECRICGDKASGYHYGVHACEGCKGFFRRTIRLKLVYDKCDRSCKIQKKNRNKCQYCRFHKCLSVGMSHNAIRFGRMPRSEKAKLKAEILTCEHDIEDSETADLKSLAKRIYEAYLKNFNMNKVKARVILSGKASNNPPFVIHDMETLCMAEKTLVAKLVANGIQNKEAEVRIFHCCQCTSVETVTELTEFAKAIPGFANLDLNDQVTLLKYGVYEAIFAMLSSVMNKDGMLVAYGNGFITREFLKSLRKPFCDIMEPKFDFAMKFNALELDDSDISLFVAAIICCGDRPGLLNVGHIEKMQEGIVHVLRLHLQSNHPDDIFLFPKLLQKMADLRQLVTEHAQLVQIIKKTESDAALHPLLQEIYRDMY
Chain of UniProt Q96PF2 (whole entry, looked up): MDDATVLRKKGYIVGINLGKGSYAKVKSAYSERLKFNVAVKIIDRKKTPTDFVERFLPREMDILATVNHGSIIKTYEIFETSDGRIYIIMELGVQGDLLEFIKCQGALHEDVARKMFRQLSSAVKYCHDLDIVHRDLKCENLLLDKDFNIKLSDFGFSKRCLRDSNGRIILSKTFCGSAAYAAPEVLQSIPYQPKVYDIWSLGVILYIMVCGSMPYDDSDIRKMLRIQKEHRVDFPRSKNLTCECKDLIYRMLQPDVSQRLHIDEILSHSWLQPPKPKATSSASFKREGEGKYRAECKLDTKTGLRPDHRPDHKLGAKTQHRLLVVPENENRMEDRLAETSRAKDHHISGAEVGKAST
Chain of UniProt P00591 (whole entry, looked up): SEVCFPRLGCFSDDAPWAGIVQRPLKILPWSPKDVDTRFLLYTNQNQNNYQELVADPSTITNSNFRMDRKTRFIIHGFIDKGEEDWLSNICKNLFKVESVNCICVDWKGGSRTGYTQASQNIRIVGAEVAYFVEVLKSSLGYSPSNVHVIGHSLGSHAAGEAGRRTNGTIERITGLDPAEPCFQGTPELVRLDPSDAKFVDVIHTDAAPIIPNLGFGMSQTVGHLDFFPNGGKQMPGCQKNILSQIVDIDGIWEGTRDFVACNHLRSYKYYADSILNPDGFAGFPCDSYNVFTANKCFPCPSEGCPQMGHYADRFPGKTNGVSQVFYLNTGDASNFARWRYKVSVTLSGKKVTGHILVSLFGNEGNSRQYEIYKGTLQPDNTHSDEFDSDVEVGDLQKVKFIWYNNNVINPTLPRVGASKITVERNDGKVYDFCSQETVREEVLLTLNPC
Chain of UniProt P49720 (whole entry, looked up): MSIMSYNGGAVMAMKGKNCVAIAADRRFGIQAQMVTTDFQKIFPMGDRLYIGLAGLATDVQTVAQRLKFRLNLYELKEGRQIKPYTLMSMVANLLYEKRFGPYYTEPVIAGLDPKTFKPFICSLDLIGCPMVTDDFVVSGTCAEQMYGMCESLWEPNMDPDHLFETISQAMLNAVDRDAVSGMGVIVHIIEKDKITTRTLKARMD
Chain of UniProt Q99436 (whole entry, looked up): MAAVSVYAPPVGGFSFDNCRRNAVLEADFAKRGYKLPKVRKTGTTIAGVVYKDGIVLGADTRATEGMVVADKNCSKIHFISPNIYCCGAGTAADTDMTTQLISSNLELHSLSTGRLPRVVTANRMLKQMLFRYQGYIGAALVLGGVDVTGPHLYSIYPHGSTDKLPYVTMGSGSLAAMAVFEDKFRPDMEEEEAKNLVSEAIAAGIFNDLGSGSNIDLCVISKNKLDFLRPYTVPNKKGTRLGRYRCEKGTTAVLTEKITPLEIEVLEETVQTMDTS
Chain of UniProt P04150 (whole entry, looked up): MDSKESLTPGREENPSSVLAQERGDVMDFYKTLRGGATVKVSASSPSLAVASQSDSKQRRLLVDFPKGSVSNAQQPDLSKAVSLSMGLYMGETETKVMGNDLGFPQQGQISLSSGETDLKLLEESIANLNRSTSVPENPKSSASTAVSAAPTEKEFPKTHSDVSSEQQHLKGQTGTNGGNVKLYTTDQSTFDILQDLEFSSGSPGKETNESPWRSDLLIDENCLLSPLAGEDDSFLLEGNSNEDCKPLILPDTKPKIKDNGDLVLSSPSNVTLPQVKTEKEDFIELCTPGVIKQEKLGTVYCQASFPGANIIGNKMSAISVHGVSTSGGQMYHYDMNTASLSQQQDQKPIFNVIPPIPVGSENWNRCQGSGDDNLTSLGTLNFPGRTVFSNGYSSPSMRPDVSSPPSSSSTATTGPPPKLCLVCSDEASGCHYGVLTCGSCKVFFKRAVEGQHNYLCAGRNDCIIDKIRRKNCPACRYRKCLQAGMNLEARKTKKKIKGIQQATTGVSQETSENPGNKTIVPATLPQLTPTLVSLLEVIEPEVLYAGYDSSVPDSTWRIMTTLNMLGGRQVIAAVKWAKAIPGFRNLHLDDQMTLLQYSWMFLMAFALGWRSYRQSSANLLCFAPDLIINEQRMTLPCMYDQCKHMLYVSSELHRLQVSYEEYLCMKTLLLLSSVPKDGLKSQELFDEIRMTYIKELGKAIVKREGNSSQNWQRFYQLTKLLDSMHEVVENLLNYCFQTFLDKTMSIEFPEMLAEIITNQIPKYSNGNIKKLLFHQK
Chain of UniProt P05067 (whole entry, looked up): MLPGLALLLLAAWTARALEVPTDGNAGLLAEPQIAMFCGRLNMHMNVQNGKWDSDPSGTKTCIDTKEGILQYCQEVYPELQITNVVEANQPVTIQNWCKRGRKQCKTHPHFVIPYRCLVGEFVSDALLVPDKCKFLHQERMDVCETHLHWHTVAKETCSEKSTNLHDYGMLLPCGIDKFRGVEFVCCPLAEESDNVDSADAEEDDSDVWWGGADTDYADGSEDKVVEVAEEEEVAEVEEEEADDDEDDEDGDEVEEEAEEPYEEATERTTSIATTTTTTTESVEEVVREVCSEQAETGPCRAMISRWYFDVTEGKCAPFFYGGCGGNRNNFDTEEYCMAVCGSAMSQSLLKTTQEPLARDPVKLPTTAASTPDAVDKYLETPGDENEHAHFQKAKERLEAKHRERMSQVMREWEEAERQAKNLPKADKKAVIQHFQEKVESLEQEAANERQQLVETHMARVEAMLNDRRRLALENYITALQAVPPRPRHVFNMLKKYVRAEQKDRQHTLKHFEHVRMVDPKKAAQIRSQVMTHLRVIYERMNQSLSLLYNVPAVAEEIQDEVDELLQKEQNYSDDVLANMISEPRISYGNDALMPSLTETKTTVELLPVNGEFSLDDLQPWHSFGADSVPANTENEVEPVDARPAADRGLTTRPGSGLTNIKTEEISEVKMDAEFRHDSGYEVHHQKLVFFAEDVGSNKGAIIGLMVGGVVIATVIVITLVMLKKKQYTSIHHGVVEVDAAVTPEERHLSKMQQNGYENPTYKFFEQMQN
Chain of UniProt Q92769 (whole entry, looked up): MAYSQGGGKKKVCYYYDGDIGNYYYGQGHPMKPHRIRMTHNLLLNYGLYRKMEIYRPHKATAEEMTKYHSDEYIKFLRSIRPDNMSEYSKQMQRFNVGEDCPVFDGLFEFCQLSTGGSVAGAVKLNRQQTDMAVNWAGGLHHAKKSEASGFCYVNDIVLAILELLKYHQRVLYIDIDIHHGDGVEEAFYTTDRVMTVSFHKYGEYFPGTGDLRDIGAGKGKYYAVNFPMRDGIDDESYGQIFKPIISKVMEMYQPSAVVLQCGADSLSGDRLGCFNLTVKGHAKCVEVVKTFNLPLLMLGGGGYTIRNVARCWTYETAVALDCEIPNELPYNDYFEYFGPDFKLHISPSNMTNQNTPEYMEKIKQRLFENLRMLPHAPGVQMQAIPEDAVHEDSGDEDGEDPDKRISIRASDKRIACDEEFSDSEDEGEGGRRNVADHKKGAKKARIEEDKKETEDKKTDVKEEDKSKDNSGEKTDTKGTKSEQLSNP

For `COc1ccc(CNC(=O)C(C(F)(F)F)C(F)(F)F)cc1`, the IC50 was greater than 100 µM (Chymotrypsinogen A; enzyme activity, inhibitor, fluorescence).
`Cc1c(COc2cc(OCc3cccc(C#N)c3)c(CNC(CO)CO)cc2Cl)cccc1-c1cccc(OCCCCCCC(=O)NO)c1` has an IC50 of 0.0701 µM (Histone deacetylase 2 (HDAC2, Homo sapiens, UniProt Q92769); enzyme activity, inhibitor).
For `O=C(Nc1ccccc1OCC(=O)N1CCOCC1)C(C(F)(F)F)C(F)(F)F`, the IC50 was 63 µM (Chymotrypsinogen A; enzyme activity, inhibitor, fluorescence).
`C[C@@H]1Cc2c([nH]c3ccccc23)[C@@H](c2c(F)cc(/C=C/C(=O)O)cc2F)N1C12CC(C1)C2` gave an IC50 of 4.29 µM (Glucocorticoid receptor (NR3C1, Homo sapiens, UniProt P04150); GR receptor activity, antagonist, cell-based).
For `Cc1nn(-c2cccc(N)c2)c(=O)c2cnc(Nc3ccc(N4CCNCC4)cc3)nc12`, the IC50 was greater than 10 µM (Testis-specific serine/threonine-protein kinase 2 (TSSK2, Homo sapiens, UniProt Q96PF2); enzyme activity, inhibitor).
With `COc1cc(/C=C/c2n[nH]c(-[c-]3cccc3)c2C)ccc1O.[Fe+2].c1cc[cH-]c1` the IC50 was 16.6 µM (Amyloid-beta precursor protein (APP, Homo sapiens, UniProt P05067); amyloid aggregation, inhibitor, fluorescence; pH 6.9).
`Nc1ncc2c(n1)-c1c([nH]c3ccc(C#CC4CC4)cc13)CC2` gave an IC50 of 0.06 µM (Phosphatidylinositol 5-phosphate 4-kinase type-2 gamma (PIP4K2C, Homo sapiens, UniProt Q8TBX8); target engagement in cells, BRET).
The IC50 of `OC[C@@H]1[C@@H](O)[C@H](O)[C@@H](O)CN1CC(F)(F)CCCOCc1ccc(-c2ccccc2)cc1` is reported as 0.01 µM (GBA2; inhibitor, 4MU-β-D-glucopyranoside; HEK293T homogenates overexpressing GBA2).
`CCOC(=O)/C=C/C(=O)[C@H](CC(C)C)NC(=O)[C@H](Cc1ccccc1)NC(=O)[C@H](Cc1ccccc1)n1cc(CCCCC2=C3C(C)=CC(C)=[N+]3[B-](F)(F)n3c(C)cc(C)c32)nn1` (mixture of isomers) gave an IC50 of 4.98 µM (Cathepsin B (CTSB, Homo sapiens, UniProt P07858); enzyme activity, inhibitor).
The IC50 of `CCCCCCCCN1C[C@H](O)[C@@H](O)[C@H](O)[C@H]1CO` is reported as 0.02 µM (GBA2; inhibitor, 4MU-β-D-glucopyranoside; HEK293T homogenates overexpressing GBA2).
`CC(C)C[C@H](NC(=O)[C@H](Cc1ccccc1)NC(=O)[C@H](CCCNC(=N)N)NC(=O)[C@H](C)N)B(O)O` gave an IC50 of 0.045 µM (Proteasome subunit beta type-3/PSMB7 (Homo sapiens, UniProt P49720+Q99436); trypsin-like activity, inhibitor; human proteasome 10 nM; added: Boc-LRR-AMC).
The IC50 of `OC[C@@H]1[C@@H](O)[C@H](O)[C@@H](O)CN1CCCCCOCC1CCOCC1` is reported as 0.035 µM (GBA2; inhibitor, 4MU-β-D-glucopyranoside; HEK293T homogenates overexpressing GBA2).
`CN(C1=C(c2ccc(F)cc2)C(=O)NC1=O)c1ccc(F)cc1` gave an IC50 of greater than 1250 µM (Sensor histidine kinase AirS (Staphylococcus aureus, UniProt Q2FX96); autophosphorylation, inhibitor, BODIPY-FL-ATPγS in-gel fluorescence; lower bound of confidence interval).
With `Cc1c(Cc2cccc(C(C)(C)C(=O)O)c2)c2ccc(C(=O)N[C@@H](C)c3ccc(C(C)(C)C)cc3)cc2n1C` the IC50 was 4.92 µM (PPARA ligand-binding domain; reporter gene, luciferase reporter; HEK293T, Gal4-PPARα LBD).
For `COc1ccc(CCc2cc(OC)c(O)c(OC)c2)cc1OC`, the IC50 was 173 µM (Pancreatic triacylglycerol lipase (PNLIP, Sus scrofa, UniProt P00591); enzyme activity, inhibitor).
For `O=C(Nc1ccccc1OCC1CC1)C(C(F)(F)F)C(F)(F)F`, the IC50 was 15 µM (Chymotrypsinogen A; enzyme activity, inhibitor, fluorescence).
`OC[C@H]1[C@@H](O)[C@H](O)[C@@H](O)CN1CCCCCOCC(COCCCCCN1C[C@H](O)[C@@H](O)[C@H](O)[C@@H]1CO)C12CC3CC(CC(C3)C1)C2` (stereo partly drawn) gave an IC50 of 0.15 µM (GBA2; inhibitor, 4MU-β-D-glucopyranoside; HEK293T homogenates overexpressing GBA2).
`Cc1c(Cc2cccc(OCC(=O)O)c2)c2ccc(C(=O)N[C@@H](C)c3cccc(C(C)(C)C)c3)cc2n1C` gave an IC50 of 41.1 µM (PPARA ligand-binding domain; reporter gene, luciferase reporter; HEK293T, Gal4-PPARα LBD).

Repeated from above:
With `COc1cc(/C=C/c2n[nH]c(-[c-]3cccc3)c2C)ccc1O.[Fe+2].c1cc[cH-]c1` the IC50 was 16.6 µM (Amyloid-beta precursor protein (APP, Homo sapiens, UniProt P05067); amyloid aggregation, inhibitor, fluorescence; pH 6.9).
With `Cc1c(Cc2cccc(C(C)(C)C(=O)O)c2)c2ccc(C(=O)N[C@@H](C)c3ccc(C(C)(C)C)cc3)cc2n1C` the IC50 was 4.92 µM (PPARA ligand-binding domain; reporter gene, luciferase reporter; HEK293T, Gal4-PPARα LBD).
